Assay results of several laboratories.
Parts stem from different laboratories: compare values within a part only. Substitutions count along the parent as printed.

Set 1
Target: CCNB1, cyclin fold, Cln2 fusion (human)
Technique: yeast growth competition, sequencing
Medium: yeast
Notes: weak parent motif
Relative to: not given
Reading: higher = stronger binding
Starting sequence: CDKN1B docking peptide (human); PSACRNLFGPVDH
| Variant | normalised enrichment score |
| --- | --- |
| V11P | 0.278 |
| D12G | 0.334 |
| C4N | 0.209 |
| P10R | 0.936 |
| P10L | 0.621 |
| H13G | 0.356 |
| P1T | 0.937 |
| R5W | -0.141 |
| V11F | 0.79 |
| L7C | -0.321 |
| V11A | 0.157 |
| L7S | 0.299 |
| N6Q | 0.913 |
| A3K | 0.0194 |
| P10K | 0.364 |
| P1W | 0.358 |
| C4S | -0.000474 |
| N6C | 0.584 |
| L7P | -0.036 |
| F8T | 0.0402 |

Set 2
Target: RING finger protein unkempt homolog, zinc fingers 1-6, GST-SBP tag (UNK, Homo sapiens, UniProt Q9C0B0, residues 30-357)
Technique: RNA Bind-n-Seq
Form: RNA
Medium: in vitro
Tested at: not given
Notes: RNA with constant flanks, human and mouse sites, ends assumed
Relative to: input RNA pool
Reading: higher = stronger binding
Shared flanks, not repeated: GGGAGUUCUACAGUCCGACGAUC … CAACAGAGGAUUGAGCAUCA
Target sequence (chain): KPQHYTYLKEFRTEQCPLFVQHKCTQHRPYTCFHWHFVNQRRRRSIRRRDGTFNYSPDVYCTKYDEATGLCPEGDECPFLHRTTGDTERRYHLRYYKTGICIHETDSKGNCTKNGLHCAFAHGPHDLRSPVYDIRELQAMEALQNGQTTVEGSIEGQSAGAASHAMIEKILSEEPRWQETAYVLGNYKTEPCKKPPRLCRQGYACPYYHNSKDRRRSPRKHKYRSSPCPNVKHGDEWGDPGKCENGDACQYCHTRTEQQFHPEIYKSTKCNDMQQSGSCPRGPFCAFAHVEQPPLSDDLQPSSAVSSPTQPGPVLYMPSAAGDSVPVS
| Strand | bound/input enrichment [ratio] |
| --- | --- |
| CGAGUUGAUCAAGGGGCUGCAACAGCUCUCAGUAGGAAAGACAAUGCCAGCAACAUAUAUAGCAAAAAUACUGACUAUACUGAACUUCACCAGCAAAAUACAGAUUUGAUAUAUCAGACU | 4.49 |
| AAGCCCUUGUGCCCUUGUCUUCAAGAAGUUCCAAAUCACCUGUUUUCCAAAGGUCCAGCAUUUUGUGGGGACAAGGCCUUGCCUUUGGCUCAUCAGAAGACCUGUCUUUCCAUCCUACUG | 0.085 |
| GACAUCAAUUGCUGCAACUGAACUUGAAGAUGAUGACGAUGACUAUUCAUCAUCUACGAGUUUGCUUGGUCAGAAGAAGCCAGGAUAUCAUGCCCCUGUGGCAUUGCUUAAUGAUAUACC | 0.114 |
| UCAAGUGACCAGGAGGAAGGCCAUGGGCCUCCUGCCUUUGUGCCAAAAGAUCAAAAAGAAGGUUGUCUUCCCCAGAAGAUCUCUGCAAGUAAACCCGAGUCCCAGAGACGAGGUGCAGGC | 0.0482 |
| GUUGAAAAUUAUUGCCGUCAUUAUUUACAUACUUAAGACAUAUUAGCAAGUUGAUCCAAAAUGGGAGGCCUUAUAGAUGUGCUUGGGGGAAAAUGAAGGGGAGAAAGUAGCCAUACAGGA | 1.42 |
| AUGGCACAACUUCUGGAUCUCUCUGUGGAUGAGUCAGAGGCUUUCCUCUCGAAUCUAGUCGUUAACAAGACCAUCUUUGCUAAAGUAGACAGGUUGGCUGGAGUCAUCAACUUCCAGAGA | 0.226 |
| ACGUGCUGCCAGCUGAGAGACUACCUGUCCGCCGGAGCAGAAACCUUCCUGCUGCGACUUUAUAGGAAAACUUUUGAGAAGGAUGGCAAAGCUGAAGAAGUGUGGGUAAAUGUUAGAAAG | 0.714 |
| UAAAGAGCAGCUGGAUUCAUCUAAUAGUACCAUUGCCAUUUUACAAACUGAGAAAGACAAACUAGAGUUGGAAAUUACAGAUUCUAAAAAAGAACAAGAUGAUCUCUUGGUGCUCUUGGC | 0.84 |
| CUGGCACACUCCGAGGAGCCGCUCACCAUCUUCAGCGGAGCCCUGCUCUACGAGGACACAGAGCUUGAACAGGUGUAGACAGGGUGGACCCGACCACCAAACUUAUCUACAGGGGCCGCA | 0.182 |
| CCUGAAGCUUUUGAUCCUAAAAGGUUAUUAGAAGAAUUUGUGAAUCAUAUUCAAGAACUGCAGAUAAUGGAUGAAAGGAUUCAAAGGAAAGUGGAGAAAUUAGAACAACAGUGUCAGAAG | 0.37 |
| AGUGUUUCUCAUCAUCUGUUUCCCAGCAAGGUCUUUUUUUUUUCUACAUUGAAGUUCUGUCUAUGUAUCUUAAUCACAAAUGGUUUCAUUCACUUUACUUUUAAAAAUUUGUCCUUAAAU | 0.223 |

Set 3
Target: ABI1, truncated, D143A, DHFR fusion (Arabidopsis thaliana)
Technique: DHFR PCA, deep sequencing
Medium: yeast
Notes: methotrexate growth selection, single substitutions
With: (+)-ABA 710 µM
Relative to: wild-type fitted maximum
Reading: higher = stronger binding
Starting sequence: PYL1, truncated, DHFR fusion (Arabidopsis thaliana); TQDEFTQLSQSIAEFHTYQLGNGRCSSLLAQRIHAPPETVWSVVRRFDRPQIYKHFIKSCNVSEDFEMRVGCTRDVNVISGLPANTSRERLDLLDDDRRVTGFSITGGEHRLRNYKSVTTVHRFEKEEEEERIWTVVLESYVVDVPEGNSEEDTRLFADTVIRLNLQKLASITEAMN; partner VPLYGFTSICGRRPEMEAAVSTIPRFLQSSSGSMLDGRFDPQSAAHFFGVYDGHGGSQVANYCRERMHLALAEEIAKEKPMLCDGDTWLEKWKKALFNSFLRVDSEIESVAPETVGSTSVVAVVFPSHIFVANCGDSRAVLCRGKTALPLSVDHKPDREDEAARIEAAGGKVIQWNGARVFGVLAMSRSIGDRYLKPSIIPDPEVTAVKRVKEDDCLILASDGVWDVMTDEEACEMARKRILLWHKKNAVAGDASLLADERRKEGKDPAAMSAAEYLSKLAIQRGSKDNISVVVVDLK
| Variant | relative binding score |
| --- | --- |
| N85L | 102% |
| E125I | 106% |
| L91D | 17.4% |
| L28E | 14.1% |
| H122D | 89.8% |
| S80W | 67.9% |
| L164S | 102% |
| G148R | 87.4% |
| Q10M | 94.6% |
| D97T | 123% |
| D153G | 53.6% |
| T154N | 5.05% |
| V100K | 51.4% |
| V142W | 83.8% |
| L169W | -6.71% |
| L112F | 89.2% |
| I57D | -1.67% |
| S80K | 78.9% |
| L29Y | 69.6% |
| T1H | 98.7% |
| P37K | 68.8% |
| R46V | 92.2% |

Set 4
Target: Ras GTPase-activating protein-binding protein 1, full length (G3BP1, Homo sapiens, UniProt Q13283)
UniProt Q13283, sequence (whole entry, looked up): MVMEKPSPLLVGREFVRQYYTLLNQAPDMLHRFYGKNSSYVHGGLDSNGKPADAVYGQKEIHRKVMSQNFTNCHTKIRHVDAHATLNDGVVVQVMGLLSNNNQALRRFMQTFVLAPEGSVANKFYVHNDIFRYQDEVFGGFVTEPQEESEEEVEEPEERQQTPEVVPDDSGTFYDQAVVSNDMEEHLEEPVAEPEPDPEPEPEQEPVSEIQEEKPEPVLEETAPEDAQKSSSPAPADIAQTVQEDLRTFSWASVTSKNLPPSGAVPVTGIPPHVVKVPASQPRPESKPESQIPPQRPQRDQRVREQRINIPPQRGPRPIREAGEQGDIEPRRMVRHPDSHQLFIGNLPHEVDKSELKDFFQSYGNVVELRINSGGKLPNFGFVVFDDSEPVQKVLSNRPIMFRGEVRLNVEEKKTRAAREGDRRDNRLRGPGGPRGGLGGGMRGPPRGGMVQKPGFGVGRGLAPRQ
Technique: RNA Bind-n-Seq
Form: RNA
Medium: in vitro
Tested at: 200 nM
Notes: whole 134-nt RNA, ends assumed
With: 150 mM LiCl
Relative to: input library
Reading: higher = stronger binding
Library: 7-deaza-guanosine replaces G
Shared flanks, not repeated: GGGAGUUCUACAGUCCGACGAUC … UGGAAUUCUCGGGUGUCAAGG
| Strand | log2 enrichment |
| --- | --- |
| UUGAGAUUGGGUGGAUUCCUAUCAUCUGGAAUUCUGACUCCUCGGGUCUCCUUCUCUAGGUAGCCCAGCAGCAGUGAAGAUGCAGACUGA | -1.62 |
| GUCCUGUGCUACACAUCGUAUGUACCGAAUCGGGGAAAGGGGAAAAAGGGGAAAGGGGAAAGUAUUAUGUUACGCCGUUCGGAUCUGCAC | 0.473 |
| CCUGUGCUACACAUCGUAUGUACCGAAUCGGGGAAAGGGGUUUUUUUGGGGUUUUUGGGGAAAGUAUUAUGUUACGCCGUUCGGAUCUGC | 0.34 |
| ACCUUGCAGGUGGGCAUCUUUGGGAAGUGGGGCAAGGGGGGGAUAGGGAGGGGGGUAACACUUUGGGAACAGGUGGUCCCAGGUCGUUUC | 0.475 |
| CCUGUGCUACACAUCGUAUGUACCGAAUCGGGGAAAGGGGUUUUUGGGGAAAAAAAGGGGAAAGUAUUAUGUUACGCCGUUCGGAUCUGC | 0.731 |
| UCAAGUCCUGUGCUACACAUCGUAUGUACCGAAUCGGCCGGGGCCGGGGCCGGGGAAAGUAUUAUGUUACGCCGUUCGGAUCUGCACUUC | -0.428 |
| ACCAUGCAGGUGGGCAUCUUUGGGAAGUGGGGCAAGGGGGGGAUAGGGAGGGGGGUAACACUUUGGGAACAGGUGGUCCCAGCUCGUUUC | 0.248 |
| AGUCCUGUGCUACACAUCGUAUGUACCGAAUCGGUUUUUUUGGAAAAAAAGGUUUGGAAAGUAUUAUGUUACGCCGUUCGGAUCUGCACU | -3.48 |
| UGGCCCUGGUGGCAUGCGGGGAGGAAGAGGGGGCCUCAUGGAUCGUGGUGGUCCCGGUGGAAUGUUCAGAGGUGGCCGUGGUGGAGACAG | 0.779 |
| CACAGACAACACGCACCCACACAGACACAGAGGGAAGGGGUUGGGAUGGGGACAGGGUGCACAGCAGGGCGGGGUAGGACCCCAGCCGCU | -0.903 |
| UCAAGUCCUGUGCUACACAUCGUAUGUACCGAAUCGGGGAAAGGAAAGGGAAAGGAAAGUAUUAUGUUACGCCGUUCGGAUCUGCACUUC | -0.2 |

Set 5
Target: RNA binding protein fox-1 homolog 2, RRM domain, GST-SBP tag (RBFOX2, Homo sapiens, UniProt O43251-10, residues 100-194)
Technique: RNA Bind-n-Seq
Form: RNA
Medium: in vitro
Tested at: 365 nM
Notes: natural RNA segment, single round, ends assumed
Relative to: no-protein control
Reading: higher = stronger binding
Shared flanks, not repeated: GGGAGUUCUACAGUCCGACGAUC … UGGAAUUCUCGGGUGCCAA
Target sequence (chain): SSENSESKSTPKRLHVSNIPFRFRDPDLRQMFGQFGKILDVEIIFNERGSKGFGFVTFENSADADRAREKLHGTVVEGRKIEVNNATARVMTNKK
| Strand | RBNS enrichment (R) |
| --- | --- |
| AUUUGGGAAAGUUGGGCUAUAUGUUUGCAGGGACUUAAAAAGGUAGGUUCAGAACAGUAUUCUCAGUACAAGCUUCGCUUUUCUAAGAAGUACACAUUUGGCCCAAAUUC | 0.542 |
| GAAUUUUUUCAAAUGUUGGAAGGUGUGUGGUUCUUCCUGCCCUCCCUCCCCUUUUGGAAAUAUGAAAGCAAAUGUUUAGAAGAAUUCCUUUUGAAAAGCUGUGUCGUGUU | 1.15 |
| GGUUCUUUUUUGAUCUGUUUUGGUCGUCCCUCCAUUCAACUGCAUCUUUUUUUUUUUUAAAAACAAAAUUAAAAGCUAUUCAAUUCUGCAUGGAAUAUAUCUGCUGUCAU | 0.974 |
| GUUUUACUGAGUCAGAUGGUGGAAAGACAGAUGUCUCUAUACUUUCUUAACAAGCCACUCUGUCCCAUAACAUGCACUUGGAAUCUCUCCUAAGUUCCAGAGGCCCCACU | 0.347 |
| CUGGCACGCUCUGCUCCAGGCUCUGACUCAGGGGUGGCUGAGCCUCAUGCUCCCAGAACCAUGCAUGGGGCAGCUAGGAUCCAUUUGUCUGUUGGAAAUGUUUGUAGCUU | 1.26 |
| AUUAUUUAUAUUACAGAGAAAAGAGGGAUCGGCCCUCCAAGGACCAGACAGAUUGAGAGAGAGUCACUUAAGCUGAGAGAGACUUAAGGGUGAGACUGGCGUGCAGGCGU | 0.5 |
| CCAGCUUGCUGGUCGGCUUUCCUCUAGAGAGAGCCGGUUUUGGGGCCAUUUCCCUUUGAUGCUUUGGUGGCCUUGCCCCGCUCUGCAGCACAGACAGGCCAGAUGCAUUU | 0.672 |
| UGACAUUCCCUUAGCACCAGCUGUCCCACCUCCAGGGUCCUGACCAGGUCAGAGAUGUCCCCUGCCAUGCAGAGCAGGAAGCCUCAGCUGGGCCUGGAGUGUCCCUGCUC | 0.326 |
| GAGGCAAGCAGAUCCCUGAGUUUGAGGUAAGCCUGAUUUACAGAGCAAGUUCCAAGACACCAGGCAAUACAGAGAAACCUGCCUCAAGCCAUCUGCUCCCUGAAAAAAGA | 0.472 |
| UGAGGAGUUAGGCUGUAGAAGUGACAGUUUCCAGUCAAAUCUGUAAACCCAGCCCCCAAGCUGAGACCAGUCUCCCUGUGGCGGAGCCAGCCAAGAUGGGGCCAUUCUCU | 0.333 |
| CUUGAAUGCUGGUGUCUGUUAGAAUGCUUCUGACUACAGAUGUAAUUAAAGGCUUUUCUUACUAUGUUUUAACCAAAGAUGUGGAGCAAUCCAAGCCGCAUAUCUACUGC | 0.515 |
| UUGGGGUCACUCUAUCUCACAUUUUUUUUGGUUAGCAUUUUAAAAAUGCAAAGCCACAUACUUUGAAAUAUAUUAUUCCAAAUUGAGCUCCCUUCCCUUUGCACAUAUUU | 0.898 |

Some of these lines once more (set 3):
| Variant | relative binding score |
| --- | --- |
| L164S | 102% |
| L28E | 14.1% |
| N85L | 102% |
| G148R | 87.4% |
| L112F | 89.2% |
| V100K | 51.4% |
| Q10M | 94.6% |
